Published values pooled from the literature.
A part holds a random share of what one study measured.

Series 1
Target: Interferon regulatory factor 5, full length, phosphomimetic (IRF5, Homo sapiens, UniProt Q13568-2, residues 1-514, S451D/S453D/S456D/S462D)
Method: protein-binding microarray
Form: double-stranded DNA, one strand shown
Matrix: in vitro
Concentration: 940 nM top
Setting: 60-bp whole probe
Together with: salmon DNA 0.4 mg/ml
Relative to: random background probes
Reading: higher = stronger binding
Shared flanks, not repeated: GCCTAGCAC … GTCTTGATTCGCTTGACGCTGCTG
Strand | fitted relative affinity [z-score]
TCAAGTTTTTATTTTCTACTGTGCTAG | 1.32
GACGGAATGGACACTGGGGACGTGCTA | -0.413
TTAGGACTGGGTATCGGTTTGTGCTAG | 3.32
TCAGGCTTCTATGTAGTACTGTGCTAG | -0.113
GACGGTATCGACTAACGGGACGTGCTA | 5.07
TCACCAATCATTTTTGCACTGTGCTAG | 0.0314
GACGGCCTCCTACTGCTGACGTGCTAG | -0.259
GACGGTATCGACTATCGGAACGTGCTA | 5.09
TGAGAACTGAGACTGGATTAGTGCTAG | -0.163
AGAGCAGACCCAGAGTGGCAGTGCTAG | -0.205
TCATGCTTTCTTTTTGCACTGTGCTAG | 1.33

Series 2
Target: Hepatocyte nuclear factor 3-alpha (Foxa1, Mus musculus, UniProt P35582, residues 1-468, full length assumed)
Method: EMSA with sequencing
Form: double-stranded DNA, one strand shown
Matrix: in vitro
Concentration: 10 and 20 nM
Setting: whole designed probe, mean of two concentrations, ends assumed
Relative to: negative control set to 0
Reading: higher = stronger binding
Target sequence (chain): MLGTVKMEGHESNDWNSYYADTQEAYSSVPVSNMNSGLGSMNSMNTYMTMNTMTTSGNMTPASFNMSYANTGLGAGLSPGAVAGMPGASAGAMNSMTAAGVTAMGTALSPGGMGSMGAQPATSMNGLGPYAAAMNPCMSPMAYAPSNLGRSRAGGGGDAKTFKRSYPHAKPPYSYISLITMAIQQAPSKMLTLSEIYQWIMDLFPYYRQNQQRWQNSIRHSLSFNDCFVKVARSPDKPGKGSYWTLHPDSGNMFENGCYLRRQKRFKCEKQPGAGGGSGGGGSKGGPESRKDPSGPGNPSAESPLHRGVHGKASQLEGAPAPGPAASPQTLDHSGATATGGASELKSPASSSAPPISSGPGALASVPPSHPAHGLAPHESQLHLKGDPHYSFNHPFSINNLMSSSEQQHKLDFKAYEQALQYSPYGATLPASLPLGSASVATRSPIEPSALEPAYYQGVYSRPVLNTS
Strand | normalised bound fraction [ratio]
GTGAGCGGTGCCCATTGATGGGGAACTTGAGTTTTTTCCACTTTTTGACTACTATGAATAATGCTTCTGTAATCTTTCTTGTACAAGTTTCTTTGGGAAATATTTTTTCAGTTCTCCTGAGAGTACTTAGGAGTTGAATTGCTGAGTCATGTGGTAACTATGTTTAGCTTTTTGAGGAACTGCCAAACTATTTTCCAAAATGACTGCACCATTTTACAATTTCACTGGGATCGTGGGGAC | -0.0435
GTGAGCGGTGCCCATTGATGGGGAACAGGTAAACCGAATCTGTTTTCTTCTACTCCCAAGATGGAAGAGGAAAAGGGAAAAAAAAGTGGAGAACATGCTTATGAAATCCTCAACTCCCCTTGTTTACTCTGTAAATAGCACAATATGTTTAGATTTTTCCACATCTAGAGGATTTCAAAATCTACCTGGGAGGGAGGGCTGGGGCATCAACTGGTATGCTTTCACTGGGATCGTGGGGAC | 0.264
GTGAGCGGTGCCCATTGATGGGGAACATCTTCCCCCTCTTCCTTGCCCCACCAGCTCACCTTCCCGGGTCAAAGTAAACAAGTGTTTACTTTGAAGCCGGCATTCGTTAACCCTCTTCACGCGCATACTGCCAAAGTAAACAGATGAATCATGGTCCTTTGGCGACGCCAGGCTCCGGGAGAGCAAAGCACCGTGTCAGGGCCATGATCCGGGGTGGCCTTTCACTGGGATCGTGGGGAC | 0.541
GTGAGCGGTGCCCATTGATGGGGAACATCTTCCCCCTCTTCCTTGCCCCACCAGCTCACCTTCCCGGGTTATTTGCAGATAGGAAAATAAATAAAGCCGGCATTCGTTAACCCTCTTCTGGCGCAAACTGCTGTTTGCTCTGGAGTCTCTATTGGCGGTAAGTCACGCCAGGCTCCGGGAGAGCAAAGCACCGTGTCAGGGCCATGATCCGGGGTGGCCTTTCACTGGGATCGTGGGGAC | 0.367
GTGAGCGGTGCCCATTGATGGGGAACCTCATTCCTTGCTTCCGCCAATAATCTGACTAGTAAAGAAGTCACTGCATGCCACAAATTGTCAGTGCTGACTTCCTCAACAAGGAAGTATAAGTAAATAAATATTAAGAGTGACTCAGTATATATGCAAATTCCATCTTGAGAATACCAACTCCTGATGCCAACTGATTGTCAGTCATGGCTACAACAGGAGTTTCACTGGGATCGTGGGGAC | 0.401

Series 3
Target: Histone acetyltransferase KAT6A, both winged helices, GST fusion (KAT6A, Homo sapiens, UniProt Q92794, residues 1-181)
Method: protein binding microarray
Form: double-stranded DNA, one strand shown
Matrix: in vitro
Concentration: not given
Setting: 8-mer, flanks averaged, mean of 2 arrays, mostly near background
Relative to: not given
Reading: higher = stronger binding
Residues (chain): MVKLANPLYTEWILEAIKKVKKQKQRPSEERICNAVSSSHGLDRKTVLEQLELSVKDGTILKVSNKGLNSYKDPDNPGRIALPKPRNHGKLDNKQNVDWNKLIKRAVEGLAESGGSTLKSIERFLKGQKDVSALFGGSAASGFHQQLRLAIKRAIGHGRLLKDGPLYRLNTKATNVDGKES
Strand | E-score
CACTACCA | -0.0584
CAGATGTC | -0.0142
GGAGCGCA | 0.264
ATACCTCG | -0.0732
ACGACTAT | -0.0204
ATCTAAAA | -0.184
ACGGGCAC | 0.24
AGACAAAA | -0.0913
ACATTGCC | 0.0422
GTACAAAC | -0.0186
ACGGCCGG | 0.302
CCAGATTA | -0.083
AGTCGAAT | -0.1
GGATAATA | -0.0372
CTGCAGCC | -0.049
ACCAGAGA | -0.18
ATGCCCTG | -0.178
AAAGTTAG | -0.00651
CGATGAAG | -0.00096
CTGGCCGA | 0.141
AGGTCTCC | 0.0943
GGTCCACC | -0.123
CTGATCCC | -0.152
ACGGCAAC | 0.307
CCACAGCG | 0.105

Series 4
Target: Fragile X messenger ribonucleoprotein 1, C-terminal low-complexity region (Fmr1, Mus musculus, UniProt P35922)
Method: RNA Bind-n-Seq
Form: RNA
Matrix: in vitro
Concentration: 200 nM
Setting: whole 134-nt RNA, ends assumed
Together with: 150 mM KCl
Relative to: input library
Reading: higher = stronger binding
Strand | log2 enrichment
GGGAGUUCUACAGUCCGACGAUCUCCUGUGCUACACAUCGUAUGUACCGAAUCGGGGAAAAAGGGGUUUUUUUGGGGUGGGGAAAGUAUUAUGUUACGCCGUUCGGAUCUGCAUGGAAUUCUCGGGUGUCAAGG | 0.871
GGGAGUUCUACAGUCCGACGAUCCACAGACAACACGCACCCACGCAGACACAGAGGGAAGGGGUUGGGAUGGGGACAGGGUGCACAGCAGGGCGGGGUAGGACCCCAGCCCCUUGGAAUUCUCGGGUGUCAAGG | 1.32
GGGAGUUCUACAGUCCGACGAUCUUUUCUGCAUGGACCGUGCCCUAGAAUUUGCCCCUGCCUGCCAUCGCUUCAAAAUCCUCAAGGCAGAAUGUUUAGCAAUGCUGGGUCGUUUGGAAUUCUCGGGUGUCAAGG | -0.178
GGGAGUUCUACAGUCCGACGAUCUAACUAUAGAGGAGGAUCUGAUGGAUAUGGCAGUGGACGUGGAUUUGGGGAUGGCUAUAAUGGGUAUGGAGGAGGACCUGGAGGUGGCAAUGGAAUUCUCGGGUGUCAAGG | 0.258
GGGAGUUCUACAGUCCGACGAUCUUCUUGCCAGAGACGAAGAAGCGCAAGAAACGCAAGUCAGAGGAUGGCACGCCAGCGGAGGAUGGCACACCUGCAGCCACCGGCGGGAGCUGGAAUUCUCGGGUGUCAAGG | -1.3
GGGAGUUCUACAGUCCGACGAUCUGGGAGGUGGAUUUUGUUUAUUUUUUUAGCUCAUUUCCAGGGGUGGGAAUUUUUUUUUAAUAUGUGUCACGAAUAAAGUUGUUUUUGAAAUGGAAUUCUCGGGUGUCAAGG | 0.431
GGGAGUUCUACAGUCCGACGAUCUGGCCCUGGUGGCAUGCGGGGAGGAAGAGGUGGCCUCAUGGAUCGUGGUGGUCCCCGUGGAAUGUUCAGAGGUGGCCGUGGUGGAGACAGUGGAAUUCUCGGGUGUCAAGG | -0.25
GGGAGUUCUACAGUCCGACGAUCUGGCCCUGGUGCCAUGCGGGGAGGAAGAGGUGGCCUCAUGGAUCGUGGUGGUCCCGGUGGAAUGUUCAGAGGUGGCCGUGGUGGAGACAGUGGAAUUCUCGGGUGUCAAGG | 0.217
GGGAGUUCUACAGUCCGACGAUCCCUGUGCUACACAUCGUAUGUACCGAAUCGGGAAAAAAAGGGAAAAAAAGGAAAAAAAGGAAAGUAUUAUGUUACGCCGUUCGGAUCUGCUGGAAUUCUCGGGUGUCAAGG | -0.442
